Measurements of several laboratories.
Numbered parts are unrelated; each lists some results of a single study. Several values in a cell are separate wells, animals, samples, runs or records.
UniProt P08922, sequence (whole entry, looked up): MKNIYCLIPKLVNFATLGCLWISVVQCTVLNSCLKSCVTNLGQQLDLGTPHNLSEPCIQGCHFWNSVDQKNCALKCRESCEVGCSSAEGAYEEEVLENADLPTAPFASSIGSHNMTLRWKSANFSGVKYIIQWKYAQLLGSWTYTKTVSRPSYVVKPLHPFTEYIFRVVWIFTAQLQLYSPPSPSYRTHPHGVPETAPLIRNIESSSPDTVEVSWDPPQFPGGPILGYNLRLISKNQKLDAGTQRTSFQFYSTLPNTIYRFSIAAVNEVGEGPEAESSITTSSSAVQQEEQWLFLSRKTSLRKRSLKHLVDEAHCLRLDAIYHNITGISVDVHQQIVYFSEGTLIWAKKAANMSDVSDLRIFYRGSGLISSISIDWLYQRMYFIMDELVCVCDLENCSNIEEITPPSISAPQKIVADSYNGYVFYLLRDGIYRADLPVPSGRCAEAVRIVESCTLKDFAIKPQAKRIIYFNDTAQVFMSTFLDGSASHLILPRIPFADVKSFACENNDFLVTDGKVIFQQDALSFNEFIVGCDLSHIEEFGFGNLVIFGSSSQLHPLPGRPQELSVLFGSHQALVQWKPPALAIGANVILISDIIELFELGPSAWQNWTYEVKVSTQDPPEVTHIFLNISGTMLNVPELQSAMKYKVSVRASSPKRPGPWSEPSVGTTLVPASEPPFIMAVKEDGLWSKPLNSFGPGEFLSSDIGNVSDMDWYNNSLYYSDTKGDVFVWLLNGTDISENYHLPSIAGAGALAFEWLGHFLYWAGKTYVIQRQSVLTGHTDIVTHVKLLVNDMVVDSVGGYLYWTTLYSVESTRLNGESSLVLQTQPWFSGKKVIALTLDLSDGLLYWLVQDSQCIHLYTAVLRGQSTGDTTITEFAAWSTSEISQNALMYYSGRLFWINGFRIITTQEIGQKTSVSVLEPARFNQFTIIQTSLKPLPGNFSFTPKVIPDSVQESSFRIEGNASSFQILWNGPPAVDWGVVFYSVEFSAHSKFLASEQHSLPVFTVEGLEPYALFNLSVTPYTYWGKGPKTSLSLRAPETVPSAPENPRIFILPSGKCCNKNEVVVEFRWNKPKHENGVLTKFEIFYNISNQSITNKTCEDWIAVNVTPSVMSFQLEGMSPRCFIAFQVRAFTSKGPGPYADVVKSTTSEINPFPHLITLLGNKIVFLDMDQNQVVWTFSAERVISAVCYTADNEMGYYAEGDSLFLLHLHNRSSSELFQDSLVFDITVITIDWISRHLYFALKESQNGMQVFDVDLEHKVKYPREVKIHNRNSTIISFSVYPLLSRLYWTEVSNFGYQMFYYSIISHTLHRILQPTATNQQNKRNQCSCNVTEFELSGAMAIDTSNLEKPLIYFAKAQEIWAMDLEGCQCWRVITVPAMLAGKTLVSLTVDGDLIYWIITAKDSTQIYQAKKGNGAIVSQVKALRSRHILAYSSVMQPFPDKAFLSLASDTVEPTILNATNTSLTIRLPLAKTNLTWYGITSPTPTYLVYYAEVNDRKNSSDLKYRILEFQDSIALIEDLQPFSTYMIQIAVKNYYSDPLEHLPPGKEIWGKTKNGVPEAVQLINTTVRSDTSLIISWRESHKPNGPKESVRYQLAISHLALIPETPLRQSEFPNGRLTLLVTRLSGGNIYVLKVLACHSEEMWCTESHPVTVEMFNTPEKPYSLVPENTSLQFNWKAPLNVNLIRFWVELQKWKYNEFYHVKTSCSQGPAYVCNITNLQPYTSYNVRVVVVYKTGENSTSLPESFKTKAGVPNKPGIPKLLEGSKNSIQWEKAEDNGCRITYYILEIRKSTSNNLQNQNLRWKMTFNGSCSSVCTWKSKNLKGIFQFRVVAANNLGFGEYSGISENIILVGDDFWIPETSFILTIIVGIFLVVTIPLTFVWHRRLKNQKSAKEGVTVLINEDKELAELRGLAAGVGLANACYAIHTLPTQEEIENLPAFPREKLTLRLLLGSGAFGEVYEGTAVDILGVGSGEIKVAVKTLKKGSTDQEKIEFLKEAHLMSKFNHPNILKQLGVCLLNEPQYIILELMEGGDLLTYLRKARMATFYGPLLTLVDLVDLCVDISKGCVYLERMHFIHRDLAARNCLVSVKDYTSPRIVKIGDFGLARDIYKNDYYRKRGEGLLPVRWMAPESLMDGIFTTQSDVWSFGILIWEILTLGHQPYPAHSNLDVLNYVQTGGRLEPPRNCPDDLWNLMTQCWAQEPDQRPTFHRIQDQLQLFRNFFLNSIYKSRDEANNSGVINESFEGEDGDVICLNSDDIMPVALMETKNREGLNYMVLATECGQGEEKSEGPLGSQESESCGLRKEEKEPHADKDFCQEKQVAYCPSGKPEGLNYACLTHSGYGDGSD
UniProt Q8IU85, sequence (whole entry, looked up): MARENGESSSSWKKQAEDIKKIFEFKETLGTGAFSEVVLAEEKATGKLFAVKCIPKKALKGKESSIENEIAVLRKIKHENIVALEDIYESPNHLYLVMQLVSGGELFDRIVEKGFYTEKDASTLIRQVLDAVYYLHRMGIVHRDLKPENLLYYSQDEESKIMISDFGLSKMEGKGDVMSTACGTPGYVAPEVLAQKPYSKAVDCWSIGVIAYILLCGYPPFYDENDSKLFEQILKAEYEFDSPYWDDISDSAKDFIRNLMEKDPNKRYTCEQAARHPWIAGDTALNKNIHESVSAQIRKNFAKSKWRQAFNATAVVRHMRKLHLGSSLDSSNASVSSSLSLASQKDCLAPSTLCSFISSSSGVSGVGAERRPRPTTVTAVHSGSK
UniProt Q16288, sequence (whole entry, looked up): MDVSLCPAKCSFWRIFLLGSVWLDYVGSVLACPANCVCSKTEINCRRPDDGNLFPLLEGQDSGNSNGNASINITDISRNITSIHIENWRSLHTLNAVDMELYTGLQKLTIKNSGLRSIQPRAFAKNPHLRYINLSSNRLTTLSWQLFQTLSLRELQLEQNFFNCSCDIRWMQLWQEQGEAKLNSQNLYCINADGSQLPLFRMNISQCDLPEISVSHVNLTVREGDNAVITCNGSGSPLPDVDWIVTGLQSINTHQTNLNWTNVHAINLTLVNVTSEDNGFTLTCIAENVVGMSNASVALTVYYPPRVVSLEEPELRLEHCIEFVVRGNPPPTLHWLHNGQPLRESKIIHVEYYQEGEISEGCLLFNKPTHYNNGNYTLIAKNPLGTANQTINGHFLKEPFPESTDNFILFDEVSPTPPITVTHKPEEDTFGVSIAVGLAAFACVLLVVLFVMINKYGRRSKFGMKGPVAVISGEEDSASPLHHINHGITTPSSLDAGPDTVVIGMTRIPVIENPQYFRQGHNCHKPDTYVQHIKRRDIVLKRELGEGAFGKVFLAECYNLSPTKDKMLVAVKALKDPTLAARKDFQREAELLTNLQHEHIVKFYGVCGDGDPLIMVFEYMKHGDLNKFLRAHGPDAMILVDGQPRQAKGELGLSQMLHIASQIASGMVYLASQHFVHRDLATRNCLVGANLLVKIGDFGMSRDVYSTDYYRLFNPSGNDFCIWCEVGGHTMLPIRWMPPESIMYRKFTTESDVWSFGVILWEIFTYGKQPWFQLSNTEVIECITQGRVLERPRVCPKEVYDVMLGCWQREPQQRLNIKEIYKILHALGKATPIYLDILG
UniProt Q09013, sequence (whole entry, looked up): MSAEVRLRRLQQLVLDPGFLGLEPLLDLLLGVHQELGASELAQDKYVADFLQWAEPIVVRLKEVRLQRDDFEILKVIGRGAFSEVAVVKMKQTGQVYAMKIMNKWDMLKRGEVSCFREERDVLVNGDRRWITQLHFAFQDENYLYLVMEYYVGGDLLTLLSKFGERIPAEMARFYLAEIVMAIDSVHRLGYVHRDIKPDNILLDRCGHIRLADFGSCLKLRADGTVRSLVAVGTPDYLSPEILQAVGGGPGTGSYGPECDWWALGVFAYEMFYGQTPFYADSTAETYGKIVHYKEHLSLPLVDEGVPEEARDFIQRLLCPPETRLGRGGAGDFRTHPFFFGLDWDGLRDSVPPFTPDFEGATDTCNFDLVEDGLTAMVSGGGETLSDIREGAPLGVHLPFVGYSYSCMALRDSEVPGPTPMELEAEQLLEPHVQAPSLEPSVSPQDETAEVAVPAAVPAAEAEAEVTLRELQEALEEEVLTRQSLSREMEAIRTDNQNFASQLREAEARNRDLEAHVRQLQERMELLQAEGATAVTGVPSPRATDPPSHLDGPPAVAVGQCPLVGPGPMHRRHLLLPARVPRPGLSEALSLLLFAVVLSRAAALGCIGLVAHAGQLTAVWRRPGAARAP
UniProt P19784, sequence (whole entry, looked up): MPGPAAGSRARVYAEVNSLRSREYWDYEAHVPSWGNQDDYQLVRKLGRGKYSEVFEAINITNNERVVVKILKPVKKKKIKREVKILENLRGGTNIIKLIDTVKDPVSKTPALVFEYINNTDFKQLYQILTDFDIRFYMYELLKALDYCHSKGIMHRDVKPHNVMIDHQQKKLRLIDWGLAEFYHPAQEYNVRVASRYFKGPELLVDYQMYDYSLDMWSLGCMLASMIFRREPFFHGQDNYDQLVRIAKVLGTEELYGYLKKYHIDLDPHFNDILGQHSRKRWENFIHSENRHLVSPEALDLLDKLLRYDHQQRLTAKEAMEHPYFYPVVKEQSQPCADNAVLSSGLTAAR

Block 1
SMILES: CC[n+]1c(/C=C/N(C)c2ccccc2)n(-c2ccccc2)c2ccc(-c3nc4ccccc4s3)cc21
Effect on: enzyme activity
Mode: inhibitor
Tested at: 0.5 µM
Reference: control
target	remaining activity [%]
Rho-associated protein kinase 2 (ROCK2, Homo sapiens, UniProt O75116)	99.1
Proto-oncogene tyrosine-protein kinase ROS (ROS1, Homo sapiens, UniProt P08922)	99.1
Cyclin-dependent kinase 7 (CDK7, Homo sapiens, UniProt P50613)	97.8
Serine/threonine-protein kinase N2 (PKN2, Homo sapiens, UniProt Q16513)	79.2
Epidermal growth factor receptor (EGFR, Homo sapiens, UniProt P00533)	103
Proto-oncogene tyrosine-protein kinase receptor Ret (RET, Homo sapiens, UniProt P07949)	95.6
NT-3 growth factor receptor (NTRK3, Homo sapiens, UniProt Q16288)	100
Myotonin-protein kinase (DMPK, Homo sapiens, UniProt Q09013)	93.9
Calcium/calmodulin-dependent protein kinase type 1D (CAMK1D, Homo sapiens, UniProt Q8IU85)	99.7
STE20-like serine/threonine-protein kinase (SLK, Homo sapiens, UniProt Q9H2G2)	101
G protein-coupled receptor kinase 5 (GRK5, Homo sapiens, UniProt P34947)	109
Casein kinase II subunit alpha' (CSNK2A2, Homo sapiens, UniProt P19784)	105
Serine/threonine-protein kinase D1 (PRKD1, Homo sapiens, UniProt Q15139)	91.9
Mitogen-activated protein kinase kinase kinase 2 (MAP3K2, Homo sapiens, UniProt Q9Y2U5)	90.3
Calcium/calmodulin-dependent protein kinase type 1G (CAMK1G, Homo sapiens, UniProt Q96NX5)	101
Aurora kinase A (AURKA, Homo sapiens, UniProt O14965)	88.1
Cyclin-dependent kinase 2, with cyclin A (CDK2, Homo sapiens, UniProt P24941)	100
Mitogen-activated protein kinase kinase kinase 8 (MAP3K8, Homo sapiens, UniProt P41279)	92
Serine/threonine-protein kinase Nek9 (NEK9, Homo sapiens, UniProt Q8TD19)	108
Serine/threonine-protein kinase BRSK1 (BRSK1, Homo sapiens, UniProt Q8TDC3)	101
Protein-tyrosine kinase 2-beta (PTK2B, Homo sapiens, UniProt Q14289)	103
Dual specificity tyrosine-phosphorylation-regulated kinase 4 (DYRK4, Homo sapiens, UniProt Q9NR20)	107
Mitogen-activated protein kinase 10 (MAPK10, Homo sapiens, UniProt P53779)	92.7
Homeodomain-interacting protein kinase 3 (HIPK3, Homo sapiens, UniProt Q9H422)	105

Block 2
Target: Calcium/calmodulin-dependent protein kinase type II subunit alpha (CAMK2A, Homo sapiens, UniProt Q9UQM7)
UniProt Q9UQM7, sequence (whole entry, looked up): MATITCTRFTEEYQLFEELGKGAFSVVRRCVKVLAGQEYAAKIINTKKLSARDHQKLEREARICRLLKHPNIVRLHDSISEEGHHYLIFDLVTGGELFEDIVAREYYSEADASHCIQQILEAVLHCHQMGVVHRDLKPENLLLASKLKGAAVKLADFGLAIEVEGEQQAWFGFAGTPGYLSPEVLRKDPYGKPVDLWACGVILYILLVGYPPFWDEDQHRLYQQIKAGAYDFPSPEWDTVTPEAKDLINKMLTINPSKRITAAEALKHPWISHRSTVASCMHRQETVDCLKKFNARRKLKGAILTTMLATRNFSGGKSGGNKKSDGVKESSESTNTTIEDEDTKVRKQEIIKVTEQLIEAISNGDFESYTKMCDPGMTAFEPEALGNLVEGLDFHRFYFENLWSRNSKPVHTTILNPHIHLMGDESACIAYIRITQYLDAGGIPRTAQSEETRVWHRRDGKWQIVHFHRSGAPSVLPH
Effect on: enzyme activity
Mode: inhibitor
Tested at: 10 µM
SMILES	inhibition [%]
Cc1ncc([N+](=O)[O-])n1CCO	-3
N#Cc1ccnc(N2C(=O)CC[C@H]2C(=O)N(c2cncc(F)c2)[C@H](C(=O)NC2CC(F)(F)C2)c2ccccc2Cl)c1	-2
O=C(NCC(O)CO)c1c(I)c(C(=O)NCC(O)CO)c(I)c(N(CCO)C(=O)CO)c1I (stereo not shown)	-8
COc1ccc(-c2coc3cc(O[C@@H]4O[C@H](CO[C@@H]5OC[C@@H](O)[C@H](O)[C@H]5O)[C@@H](O)[C@H](O)[C@H]4O)c(OC)c(O)c3c2=O)cc1	-36
Cc1ccc(-c2ncc(Cl)cc2-c2ccc(S(C)(=O)=O)cc2)cn1	10
C/C=C/SC[C@H](N)C(=O)O	-11
CC1(C)CC[C@]2(C(=O)O)CC[C@]3(C)C(=CC[C@@H]4[C@@]5(C)C[C@H](O)[C@H](O)[C@@](C)(C(=O)O)[C@@H]5CC[C@]43C)[C@@H]2C1	-51
N[C@H](CC(=O)O)C(=O)O	-13
O=C(O)CCCCCCCCCCCC(=O)O	10
CC(C)C[C@@H](N)C(=O)O	9
COc1cc(O)c2c(=O)c(OC)c(-c3ccc(OC)c(O)c3)oc2c1	5

Block 3
Cell line: A-375
Tested at: 100 µM
Time: 36 h
SMILES	viability [%]
COc1cc(/C=C/C(=O)O)ccc1O	101
Clc1ccc(C(Cn2ccnc2)OCc2csc3c(Cl)cccc23)c(Cl)c1 (stereo not shown)	1.41
Cc1ccc2c(Cl)cc(Cl)c(O)c2n1	34.4
O=C(OCc1ccccc1)c1ccccc1	52.1
C[C@H]1[C@H](C)CC[C@]2(C(=O)O)CC[C@]3(C)C(=CC[C@@H]4[C@@]5(C)C[C@@H](O)[C@H](O)[C@@](C)(CO)[C@@H]5CC[C@]43C)[C@H]12	0.335
Cn1c([N+](=O)[O-])cnc1COC(N)=O	101
O=C(O)CC(O)(CC(=O)O)C(=O)O	111
O=C1c2cccc3c2[C@H](CCC3)CN1[C@@H]1CN2CCC1CC2	39.7
Cc1cccc(C)c1OCC(=O)N[C@@H](Cc1ccccc1)[C@@H](O)C[C@H](Cc1ccccc1)NC(=O)[C@H](C(C)C)N1CCCNC1=O	30.7
COc1cc(C=O)ccc1O	120
O=C1CC2(CCCC2)CC(=O)N1CCCCN1CCN(c2ncccn2)CC1	90.5
C[C@H]1COc2c(C3(N)CC3)c(F)cc3c(=O)c(C(=O)O)cn1c23	113
CNC[C@@H](O)c1ccc(O)c(O)c1	66.6
CC1(C)S[C@@H]2[C@H](NC(=O)Cc3ccccc3)C(=O)N2[C@H]1C(=O)O	100
CC(=O)[C@H]1CC[C@H]2[C@@H]3C[C@H](C)C4=CC(=O)CC[C@]4(C)[C@H]3[C@@H](O)C[C@]12C	21.3
CCOc1nc2cccc(C(=O)O)c2n1Cc1ccc(-c2ccccc2-c2noc(=O)[nH]2)cc1	95.7
Cc1coc2c1C(=O)C(=O)c1c-2ccc2c(C)cccc12	23.3
CC(=O)Nc1ccc(O)cc1	123
CN(C)CCOC(=O)COc1ccc(Cl)cc1	86.4

Other studies, line by line
Structure (SMILES)	cell line	method	tested at	time	measurement	result
Cn1cncc1[C@@](O)(COc1ccc(C#N)cc1-c1ccc(OC(F)(F)F)cc1)c1ccc(C#N)cc1	HEK293T	high-content imaging	10 µM	0 h	pyknotic nuclei	28.8% and 24.6%

Excerpt of the above (block 3):
SMILES	viability [%]
Cc1cccc(C)c1OCC(=O)N[C@@H](Cc1ccccc1)[C@@H](O)C[C@H](Cc1ccccc1)NC(=O)[C@H](C(C)C)N1CCCNC1=O	30.7
COc1cc(C=O)ccc1O	120
O=C1CC2(CCCC2)CC(=O)N1CCCCN1CCN(c2ncccn2)CC1	90.5
C[C@H]1COc2c(C3(N)CC3)c(F)cc3c(=O)c(C(=O)O)cn1c23	113
CNC[C@@H](O)c1ccc(O)c(O)c1	66.6
CC1(C)S[C@@H]2[C@H](NC(=O)Cc3ccccc3)C(=O)N2[C@H]1C(=O)O	100
CC(=O)[C@H]1CC[C@H]2[C@@H]3C[C@H](C)C4=CC(=O)CC[C@]4(C)[C@H]3[C@@H](O)C[C@]12C	21.3
CCOc1nc2cccc(C(=O)O)c2n1Cc1ccc(-c2ccccc2-c2noc(=O)[nH]2)cc1	95.7
